# Measured values collected from several papers.
# Several values in a cell are separate wells, animals, samples, runs or records. Numbers after ± are the reported error.
# UniProt Q62351, sequence (whole entry, looked up): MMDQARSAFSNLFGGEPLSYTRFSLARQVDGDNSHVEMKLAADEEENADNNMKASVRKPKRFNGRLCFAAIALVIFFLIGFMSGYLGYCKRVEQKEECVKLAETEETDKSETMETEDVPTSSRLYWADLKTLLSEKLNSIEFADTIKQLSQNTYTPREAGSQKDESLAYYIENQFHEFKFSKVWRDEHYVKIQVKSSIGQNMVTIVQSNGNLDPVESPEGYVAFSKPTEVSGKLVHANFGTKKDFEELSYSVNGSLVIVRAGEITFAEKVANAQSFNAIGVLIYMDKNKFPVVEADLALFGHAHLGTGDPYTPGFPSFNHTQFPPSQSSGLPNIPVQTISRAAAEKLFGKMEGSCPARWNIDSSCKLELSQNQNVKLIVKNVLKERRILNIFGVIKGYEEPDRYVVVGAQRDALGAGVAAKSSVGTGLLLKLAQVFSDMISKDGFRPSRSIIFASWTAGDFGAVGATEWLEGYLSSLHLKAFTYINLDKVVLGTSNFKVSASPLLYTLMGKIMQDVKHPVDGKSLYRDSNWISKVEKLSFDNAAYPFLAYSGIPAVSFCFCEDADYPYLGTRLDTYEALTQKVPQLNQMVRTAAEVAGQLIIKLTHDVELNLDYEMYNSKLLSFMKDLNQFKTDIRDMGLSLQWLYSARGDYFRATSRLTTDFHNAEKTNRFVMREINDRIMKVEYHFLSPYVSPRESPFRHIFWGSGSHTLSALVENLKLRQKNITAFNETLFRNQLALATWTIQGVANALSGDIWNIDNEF
# UniProt Q9H2X6, sequence (whole entry, looked up): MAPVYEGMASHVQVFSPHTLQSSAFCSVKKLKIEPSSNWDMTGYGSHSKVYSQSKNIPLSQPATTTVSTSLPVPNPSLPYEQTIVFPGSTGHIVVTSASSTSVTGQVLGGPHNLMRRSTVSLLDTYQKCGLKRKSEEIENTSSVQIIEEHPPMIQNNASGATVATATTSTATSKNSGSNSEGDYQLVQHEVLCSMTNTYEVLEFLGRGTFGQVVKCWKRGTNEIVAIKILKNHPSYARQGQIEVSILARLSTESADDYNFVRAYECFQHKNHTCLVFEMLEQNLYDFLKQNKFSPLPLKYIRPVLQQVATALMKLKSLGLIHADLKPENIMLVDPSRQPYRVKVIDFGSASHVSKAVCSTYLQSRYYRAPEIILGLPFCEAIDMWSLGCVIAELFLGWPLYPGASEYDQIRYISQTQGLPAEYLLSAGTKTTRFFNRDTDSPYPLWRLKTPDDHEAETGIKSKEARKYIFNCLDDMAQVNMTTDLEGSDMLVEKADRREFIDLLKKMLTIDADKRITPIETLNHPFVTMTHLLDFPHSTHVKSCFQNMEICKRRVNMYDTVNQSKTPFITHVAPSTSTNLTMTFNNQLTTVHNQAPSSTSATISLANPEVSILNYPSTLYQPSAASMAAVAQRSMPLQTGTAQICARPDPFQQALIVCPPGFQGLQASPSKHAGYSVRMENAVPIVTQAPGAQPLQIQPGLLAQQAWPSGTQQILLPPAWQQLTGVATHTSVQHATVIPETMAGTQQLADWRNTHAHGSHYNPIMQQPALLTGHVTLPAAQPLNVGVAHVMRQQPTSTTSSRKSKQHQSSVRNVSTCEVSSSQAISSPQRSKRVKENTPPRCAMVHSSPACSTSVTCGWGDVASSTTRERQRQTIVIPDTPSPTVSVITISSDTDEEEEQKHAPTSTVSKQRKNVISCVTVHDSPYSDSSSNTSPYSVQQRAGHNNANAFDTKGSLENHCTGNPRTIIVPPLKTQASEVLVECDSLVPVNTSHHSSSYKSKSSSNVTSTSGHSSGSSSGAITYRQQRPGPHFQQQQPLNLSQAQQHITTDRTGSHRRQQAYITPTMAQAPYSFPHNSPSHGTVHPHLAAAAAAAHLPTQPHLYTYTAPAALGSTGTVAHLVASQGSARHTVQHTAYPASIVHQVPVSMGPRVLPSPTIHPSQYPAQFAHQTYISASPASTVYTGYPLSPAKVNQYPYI
# UniProt Q13237, sequence (whole entry, looked up): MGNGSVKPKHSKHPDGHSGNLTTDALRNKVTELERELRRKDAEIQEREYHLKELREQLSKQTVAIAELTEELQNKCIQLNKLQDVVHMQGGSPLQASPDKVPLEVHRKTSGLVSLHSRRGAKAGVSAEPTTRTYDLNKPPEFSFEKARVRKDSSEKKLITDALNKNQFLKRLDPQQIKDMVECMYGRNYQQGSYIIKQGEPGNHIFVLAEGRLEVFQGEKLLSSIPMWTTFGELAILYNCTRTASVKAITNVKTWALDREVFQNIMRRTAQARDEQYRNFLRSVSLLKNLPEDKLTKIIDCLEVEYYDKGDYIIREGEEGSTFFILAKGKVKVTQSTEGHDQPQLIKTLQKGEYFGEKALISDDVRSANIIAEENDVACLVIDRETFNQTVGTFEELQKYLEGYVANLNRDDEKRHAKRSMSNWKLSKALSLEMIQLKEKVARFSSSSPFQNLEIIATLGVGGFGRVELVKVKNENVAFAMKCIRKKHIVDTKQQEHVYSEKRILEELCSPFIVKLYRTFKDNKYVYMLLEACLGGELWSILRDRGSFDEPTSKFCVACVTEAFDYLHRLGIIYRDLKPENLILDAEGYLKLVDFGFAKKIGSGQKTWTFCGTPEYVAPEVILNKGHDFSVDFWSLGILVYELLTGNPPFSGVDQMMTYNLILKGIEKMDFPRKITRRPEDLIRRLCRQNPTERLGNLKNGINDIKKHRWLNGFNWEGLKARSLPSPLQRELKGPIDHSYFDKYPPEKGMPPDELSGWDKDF
# UniProt P35232, sequence (whole entry, looked up): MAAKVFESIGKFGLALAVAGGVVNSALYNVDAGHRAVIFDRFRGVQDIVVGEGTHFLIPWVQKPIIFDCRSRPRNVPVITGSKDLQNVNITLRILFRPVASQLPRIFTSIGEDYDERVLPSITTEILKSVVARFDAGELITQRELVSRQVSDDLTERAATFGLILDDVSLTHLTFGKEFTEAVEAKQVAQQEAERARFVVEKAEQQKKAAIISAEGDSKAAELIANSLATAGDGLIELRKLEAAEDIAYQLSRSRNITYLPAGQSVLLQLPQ
# UniProt Q13224, sequence (whole entry, unmodified, looked up): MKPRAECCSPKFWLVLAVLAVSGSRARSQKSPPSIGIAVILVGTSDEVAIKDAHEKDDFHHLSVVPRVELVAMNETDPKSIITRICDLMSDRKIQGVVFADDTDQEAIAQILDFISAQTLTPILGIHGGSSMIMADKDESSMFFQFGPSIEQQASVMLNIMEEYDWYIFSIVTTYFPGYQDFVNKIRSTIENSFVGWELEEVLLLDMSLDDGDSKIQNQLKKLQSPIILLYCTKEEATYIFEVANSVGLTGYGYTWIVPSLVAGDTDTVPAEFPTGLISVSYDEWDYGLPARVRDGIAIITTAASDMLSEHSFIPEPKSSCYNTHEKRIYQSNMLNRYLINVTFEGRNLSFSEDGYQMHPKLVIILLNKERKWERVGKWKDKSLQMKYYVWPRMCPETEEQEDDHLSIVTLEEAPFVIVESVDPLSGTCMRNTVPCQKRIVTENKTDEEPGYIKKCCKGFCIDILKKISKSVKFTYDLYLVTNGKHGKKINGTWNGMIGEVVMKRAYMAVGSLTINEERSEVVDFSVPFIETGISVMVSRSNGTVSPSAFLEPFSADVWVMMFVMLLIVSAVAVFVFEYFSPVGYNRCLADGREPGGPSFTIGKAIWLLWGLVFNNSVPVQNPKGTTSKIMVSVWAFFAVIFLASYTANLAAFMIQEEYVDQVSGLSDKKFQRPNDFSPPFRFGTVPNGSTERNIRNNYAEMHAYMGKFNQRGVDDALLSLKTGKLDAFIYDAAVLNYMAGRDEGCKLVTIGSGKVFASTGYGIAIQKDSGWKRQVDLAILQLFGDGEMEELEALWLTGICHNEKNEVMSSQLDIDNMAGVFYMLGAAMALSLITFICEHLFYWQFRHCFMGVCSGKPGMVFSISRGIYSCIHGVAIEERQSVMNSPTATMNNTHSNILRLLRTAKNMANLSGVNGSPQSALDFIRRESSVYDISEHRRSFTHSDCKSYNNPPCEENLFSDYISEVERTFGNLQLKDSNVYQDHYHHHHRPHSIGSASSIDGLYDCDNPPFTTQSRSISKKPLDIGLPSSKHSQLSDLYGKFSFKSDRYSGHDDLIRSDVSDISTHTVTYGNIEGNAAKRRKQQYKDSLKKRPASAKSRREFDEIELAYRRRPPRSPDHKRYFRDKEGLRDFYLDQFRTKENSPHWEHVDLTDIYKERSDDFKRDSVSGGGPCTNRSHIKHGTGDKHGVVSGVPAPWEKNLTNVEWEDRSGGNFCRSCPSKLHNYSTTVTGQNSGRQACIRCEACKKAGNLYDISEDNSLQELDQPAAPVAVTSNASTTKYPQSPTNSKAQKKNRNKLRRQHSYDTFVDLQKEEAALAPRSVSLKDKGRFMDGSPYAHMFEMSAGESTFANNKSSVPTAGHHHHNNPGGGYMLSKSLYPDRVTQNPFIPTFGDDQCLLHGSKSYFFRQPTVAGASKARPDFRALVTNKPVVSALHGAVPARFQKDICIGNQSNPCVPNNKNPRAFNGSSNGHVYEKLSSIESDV
# UniProt P20782, sequence (whole entry, looked up): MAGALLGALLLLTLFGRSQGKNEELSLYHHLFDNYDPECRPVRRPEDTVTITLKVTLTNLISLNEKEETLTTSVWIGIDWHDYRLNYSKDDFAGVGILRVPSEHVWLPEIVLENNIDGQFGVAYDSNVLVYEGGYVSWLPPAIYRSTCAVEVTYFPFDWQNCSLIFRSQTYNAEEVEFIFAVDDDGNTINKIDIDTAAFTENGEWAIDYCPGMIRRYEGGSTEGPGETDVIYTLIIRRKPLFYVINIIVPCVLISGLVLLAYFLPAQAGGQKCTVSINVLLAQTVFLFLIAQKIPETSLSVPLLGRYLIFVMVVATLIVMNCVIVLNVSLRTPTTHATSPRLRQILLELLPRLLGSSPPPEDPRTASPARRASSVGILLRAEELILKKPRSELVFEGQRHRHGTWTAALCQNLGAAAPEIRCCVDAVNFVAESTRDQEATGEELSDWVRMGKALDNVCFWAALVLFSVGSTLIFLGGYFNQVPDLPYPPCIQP
Structure (SMILES),target,test,test system,conditions,how to read,measurement,value
CN1CCN(c2cc(-c3ccncc3)c(-c3ccc4ccccc4c3)nn2)CC1,"ADRA2A (Homo sapiens, UniProt P08913)","agonist, FLIPR",,12.5 µM,,activation,-0.4%
O=C(Nc1cccnn1)N1CCC(=Cc2cccc(Oc3ccc(C(F)(F)F)cn3)c2)CC1,"CAMK4 (Homo sapiens, UniProt Q16566)","enzyme activity, inhibitor",,"10 µM, with: autocamtide-2",,inhibition,5%
COc1ccc(N2C(=O)N(c3c(C)cccc3Cl)Cc3cnc(Nc4ccc(C5CCN(C)CC5)cc4OC)nc32)nc1,"RPS6KB2 (Homo sapiens, UniProt Q9UBS0)","kinase activity, inhibitor",,"0.5 µM, kinase P70S6K2",,inhibition,-5%
C[N+]1(C)CCN(c2cccc(C(F)(F)F)c2)CC1.[I-],"Nicotinic acetylcholine receptor alpha1/beta1/epsilon/delta (Mus musculus, UniProt P02716+P04756+P09690+P20782)","ion current, inhibitor, two-electrode voltage clamp",Xenopus oocytes,"30 µM, after co-application, unit not given, with: ACh 30 µM",reference: ACh alone,ACh response,0.62 ± 0.212
O=C(O)c1cccc(C(N(Cc2ccccc2)C(=O)c2cccs2)P(=O)(O)O)n1 (stereo not shown),"VIM-2 (Escherichia coli, UniProt Q5U7L7)",inhibitor,,with: nitrocefin,,dissociation half-life,13 ± 2.3 min
CC[C@@H](C)[C@@H](NC(=O)[C@@H](Cc1ccc(O)cc1)NC(=O)[C@H]1CCCN1C(=O)[C@@H](CCCNC(=N)N)NC(=O)[C@H](N)Cc1c[nH]cn1)C(=O)N[C@H](C)C(=O)N[C@H](Cc1c[nH]cn1)C(=O)N[C@H](CCCNC(=N)N)C(=O)N[C@H](CCCCNC(=O)c1cccc(S(=O)(=O)F)c1)C(=O)N[C@H](Cc1ccc(O)cc1)C(=O)N[C@H](CO)C(=O)N[C@H](Cc1ccccc1)C(N)=O,"Transferrin receptor protein 1 (Tfrc, Mus musculus, UniProt Q62351)",flow cytometry,B16,"2 h, unit not given",reference: 0 h,surface expression,0.901 and 0.729
CC(C)[C@@H](O)CC[C@@H](C)[C@H]1CC[C@H]2[C@@H]3CC=C4C[C@@H](O)CC[C@]4(C)[C@H]3CC[C@]12C,"Glutamate NMDA receptor; GRIN1/GRIN2B (GRIN1/GRIN2B, Homo sapiens, UniProt Q05586+Q13224, P553A)","positive allosteric modulator, two-electrode voltage clamp",Xenopus oocytes expressing GluN2B-P553A,"10 µM, 0.02% cremophor, with: 100 µM glutamate and glycine",reference: without compound,current response,180 ± 6.5%
C[C@H]1CN(c2n[nH]c3nc(N[C@H]4CC[C@H](NS(=O)(=O)CCC(F)(F)F)CC4)ncc23)CCO1,"Prohibitin 1 (PHB1, Homo sapiens, UniProt P35232)","competitor, Kinobeads competition",human cell extract,0.8 µM,reference: vehicle,relative abundance,1.08
Cc1nn(C)cc1-c1nc2c(N3CCN(Cc4ccc(Cl)cc4)CC3)c(Cl)cnc2[nH]1,"VRK2 (Homo sapiens, UniProt Q86Y07)",KINOMEscan,,1 µM,reference: DMSO control,remaining binding,100%
[2H]c1c([2H])c([C@]2([2H])CCCN2C(=O)C(C)(C)Oc2ccc3cn[nH]c3c2)c([2H])c([2H])c1C([2H])([2H])[2H],"PRKG2 (Homo sapiens, UniProt Q13237)",KINOMEscan,,1 µM,reference: DMSO control,remaining binding,91%
COc1cc(Nc2ncc(F)c(Nc3ccc4c(n3)NC(=O)C(C)(C)O4)n2)cc(OC)c1OC,"SIK1 (Homo sapiens, UniProt P57059)","kinase binding, KINOMEscan",,10 µM,,inhibition,100%
O=C(CCl)c1ccccn1,"UCHL1 (Homo sapiens, UniProt P09936)","covalent, intact protein LC-MS",,12.5 µM,,labelling,17.9%
O=C(Nc1cnccc1Cl)N1CCN(Cc2ccc3c(c2)OC(F)(F)O3)CC1,"HIPK2 (Homo sapiens, UniProt Q9H2X6)","kinase activity, inhibitor",,"50 µM, with: myelin basic protein substrate",,inhibition,4%
O=C(c1ccc(Cl)cc1)N1CCN2C(=O)N(OC(=O)N3CCOc4ccccc43)C(=O)C2C1 (stereo not shown),"Zinc-alpha-2-glycoprotein (AZGP1, Homo sapiens, UniProt P25311)",MS-based ABPP,SW-620 conditioned medium,10 µM,"reference: compound over DMSO, lower = more inhibition",median protein ratio,1.1
Nc1ncc(-c2nc(N3CCOCC3)nc(N3CCOCC3)n2)c(C(F)F)n1,"NIM1K (Homo sapiens, UniProt Q8IY84)",KINOMEscan,,10 µM,,remaining binding,68%
O=C(O)C(F)(F)C(F)(F)C(F)(F)F,"Albumin (ALB, Homo sapiens, UniProt P02768)",isothermal titration calorimetry,,"concentration not given, 25 °C, first binding site, HSA 20 µM",,enthalpy change,-8.1 kcal/mol

# Repeated from above:
Structure (SMILES),target,test,test system,conditions,how to read,measurement,value
CC[C@@H](C)[C@@H](NC(=O)[C@@H](Cc1ccc(O)cc1)NC(=O)[C@H]1CCCN1C(=O)[C@@H](CCCNC(=N)N)NC(=O)[C@H](N)Cc1c[nH]cn1)C(=O)N[C@H](C)C(=O)N[C@H](Cc1c[nH]cn1)C(=O)N[C@H](CCCNC(=N)N)C(=O)N[C@H](CCCCNC(=O)c1cccc(S(=O)(=O)F)c1)C(=O)N[C@H](Cc1ccc(O)cc1)C(=O)N[C@H](CO)C(=O)N[C@H](Cc1ccccc1)C(N)=O,"Transferrin receptor protein 1 (Tfrc, Mus musculus, UniProt Q62351)",flow cytometry,B16,"2 h, unit not given",reference: 0 h,surface expression,0.901 and 0.729
